# Published values from different studies.
# A part holds a random share of what one study measured. Positions count from the first letter of the parent shown.

# Block 1
# Target: Centromere-binding protein 1, full length, His-tagged (CBF1, Saccharomyces cerevisiae, UniProt P17106, residues 1-351)
# Chain of UniProt P17106 (whole entry, looked up): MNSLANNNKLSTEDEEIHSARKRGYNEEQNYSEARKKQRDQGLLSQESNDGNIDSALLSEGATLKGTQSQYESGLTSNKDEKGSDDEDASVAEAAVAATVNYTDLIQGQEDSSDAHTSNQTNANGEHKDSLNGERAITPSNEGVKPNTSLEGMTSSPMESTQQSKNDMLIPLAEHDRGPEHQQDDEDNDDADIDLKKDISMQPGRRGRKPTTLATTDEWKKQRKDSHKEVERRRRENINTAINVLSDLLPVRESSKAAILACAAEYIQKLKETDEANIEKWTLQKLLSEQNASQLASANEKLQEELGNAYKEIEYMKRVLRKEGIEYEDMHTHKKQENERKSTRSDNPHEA
# Method: competition protein-binding microarray
# Form: double-stranded DNA, one strand shown
# Sample: in vitro
# Concentration: 2 µM
# Setting: whole 60-bp probe, lowest competitor level
# Together with: Pho4 competitor, 0.05 µM
# Reading: higher = stronger binding
# Shared flanks, not repeated: … GTCTTGATTCGCTTGACGCTGCTG
Sequence,fluorescence intensity [a.u.]
CCGCTATATACTTTTCACGTGGGACCTGCAAAATAA,839
CTGCTGCTGGTCTTGGCCGTGACGGGTGATACGAGT,81
CTTCTGTAAATTTGCGTTGTGGGTGGACGCGCCCCG,88.1
GGAGATGATTTAACACCCGTGGAACTGAAAAAAGCC,84.1
CGGCAATTGCTGAGCACCGTGCGATGTTATGATCGC,77.7
TTCATTTGTCACCGTCACGTGATGGCATTTAAGTAC,13300
GTCTTGTCTCATTGAAAAGTGGGTGTCCCCACTTCA,69.5
ACCGCGCGATTATTTAGTGTGACGGGAGCAAAGTAG,94.7
CTTCTGTAAATTTGTCACTCTACTTGACGCGCCCCG,79.7
TTGTTCTTGATCGGCAGCATGACAAGGCTCTAAGTA,66.2
GATCAAAAAAATACTCACGTGTCCTGGAGTCATAAA,2350
AAATTACTAAGTTGTCACGAGACTTACCCCGTATGA,1490
AAAGAACCGTTTTAGCACGTGTTGATTGTCCATTTA,1460

# Block 2
# Target: RNA binding protein fox-1 homolog 2, RRM domain, GST-SBP tag (RBFOX2, Homo sapiens, UniProt O43251-10, residues 100-194)
# Method: RNA Bind-n-Seq
# Form: RNA
# Sample: in vitro
# Concentration: 365 nM
# Setting: natural RNA segment, single round, ends assumed
# Relative to: no-protein control
# Reading: higher = stronger binding
# Shared flanks, not repeated: GGGAGUUCUACAGUCCGACGAUC … UGGAAUUCUCGGGUGCCAA
# Target sequence (chain): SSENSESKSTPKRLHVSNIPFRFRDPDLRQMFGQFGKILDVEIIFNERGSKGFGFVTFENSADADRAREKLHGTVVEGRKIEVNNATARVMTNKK
Sequence,RBNS enrichment (R)
CCAGCUUAGUCAGAAGAUGGUUCCAUGGAAGAAAAAGGCCAAGGAGUUUGAAGAUUUUUCUUCUAGACAUCUCAAAAUGUGGUACUCAUACCAUCCACAUCAGAAUCCCU,0.518
UCUGCUCCCGCUCUUGCUUCAGAGUCGGCACACUCACCUGCAUUUGAGUUCUGUCUAUAGCCCAGCAGGCUGCCUGUUUAAAAUCCCAUCAUGAAUUUAACAGGCUGAUG,0.573
AGGAUCCUACCUAAGGGGCACAACUAGUAAGGGAGUAGAGCUGAGAUUGGCUCCAGAGUUCUUGUUUUCAGCCACCAUUUUAUGCUGCCUCUCCAGUGAUUUUUUUUCCC,0.33
CUCAGCCUUCUUGACUAGGUGGCCAGCCUGUUUCACUGCAGCCUCAGACCUUGCCAGACAACCGAGUCCUGCAGGAUUCUGACUCAGAAGAUAAUCACAGACGUUAGUUA,0.274
ACCCUCCUUUUUUUCCCUAUCACUGAAGCUUUUUAGUGCAUUAGUGGGGAGGAGGGUGGGGAGACAUAACCACUGCUUCCAUUUAAUGGGGUGCACCUGUCCAAUAGGCG,0.257
UGAUUCUGGUUUUGAGUUACUCUUUGUUCAGUAAUGCACUUUAUUUUAUUGUCCAAAGAGAGUCAGAGCUAAGCAUACAGGCUUGGGGGUGAGCCCUGCUGUGAGAGUUC,1.21
UGGCAUUAAAAUCUAGAUGCAUAGAGAUCCUUGCUAUGAGUUGUGGAUAGGAGUGGCUCCAUCUAUCCUUGUGGUGAAAGAGUCCAGGAGCUCCUUUAGAGAUUGUCAAG,0.538
UCUGUCUCAUGUUCGUGCAGAUUAUUACAGACACCUCUUUCCUUUAGCCAGAGAAUGGUUCAAAUGUCUUACAGAACUAAGAUCUUUUUCAGAGAAAUUGCUCACAAAAG,0.385
GCAUUAUAGGAAUUAGUCCACCACUGGCGUGGGUGAGCAGCCAGGUAAUGGGAAUUGAUCAGUGCCACCACCCUUGACCCCAACUACCAUCCCAGAUGCCCAGAUUCCAG,0.599
UAAGUUUAAUAUCCUAAAAGGAAUGCCAAUUAAGUUUUGUUAACUGUGUCAUCAACUUAUCCUAGUACCUCAGUGUUCAUUCCUGUUACCUGCAUAUCUUCUUAAAAGAA,1.08
CCGUGGUCUGACUUGACCCUGGGCCUUUUGGACACAGGUCAGCCUUCUGAUGUUUUCUGGCUGUCUUAGCAUUCGCCUUUUCUCUUGCCAGCCAGUUCUGGGGAUUCAGA,0.325
AUUCAGUCAAGUGUCUCAUAAAGAUCAGCUCCUCCCUCAGAAUACAAGUUAAUGCAUGUUACUCAGUCGCCCAGUAUGUGAAAGAAGAUAUGAGGGAGACAAAUGAGUUG,23.7

# Block 3
# Target: Interferon regulatory factor 7, full length, phosphomimetic (IRF7, Homo sapiens, UniProt Q92985, residues 1-503, S101K/S471D/S472D/S475D/S476D/S477D/S483D/S484D/S487D)
# Chain of UniProt Q92985 (whole entry, unmodified, looked up): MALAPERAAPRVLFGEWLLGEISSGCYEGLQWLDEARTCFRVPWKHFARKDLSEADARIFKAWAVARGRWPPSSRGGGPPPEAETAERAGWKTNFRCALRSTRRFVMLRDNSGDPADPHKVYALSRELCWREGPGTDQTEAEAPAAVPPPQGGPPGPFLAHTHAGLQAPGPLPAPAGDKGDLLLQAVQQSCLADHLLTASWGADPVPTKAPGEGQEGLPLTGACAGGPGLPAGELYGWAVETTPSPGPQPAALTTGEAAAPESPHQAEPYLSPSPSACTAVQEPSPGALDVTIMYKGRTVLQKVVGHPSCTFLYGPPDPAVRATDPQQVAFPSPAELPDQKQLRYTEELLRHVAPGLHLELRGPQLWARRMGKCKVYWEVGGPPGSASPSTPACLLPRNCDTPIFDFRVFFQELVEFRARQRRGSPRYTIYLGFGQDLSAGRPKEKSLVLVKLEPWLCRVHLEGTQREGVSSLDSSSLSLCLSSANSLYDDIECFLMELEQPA
# Method: protein-binding microarray
# Form: double-stranded DNA, one strand shown
# Sample: in vitro
# Concentration: 250 nM
# Setting: 60-bp whole probe
# Together with: salmon DNA 0.4 mg/ml
# Relative to: random background probes
# Reading: higher = stronger binding
# Shared flanks, not repeated: GCCTAGCAC … GTCTTGATTCGCTTGACGCTGCTG
Sequence,log fluorescence
TTAGGTATCGGACTGGTTTAGTGCTAG,0.435 z-score
TGAGGACTGGGTTTCGGTTAGTGCTAG,6.25 z-score
TTACGTTCCCTTTTCCTTTAGTGCTAG,3.11 z-score
TTAGATATCGGCTATCGATTAGTGCTA,0.0546 z-score
TCAACCATCCCTTATAAAACTGTGCTA,-0.0734 z-score
TTAGGTATCCTTCTCCTGTAGTGCTAG,0.415 z-score
TCACTCTTCTGCTTCCTACTGTGCTAG,0.712 z-score
TTAGGTTTCGGGACTGCGTTAGTGCTA,4.1 z-score
TTTGATATCGGGACTGGATTAGTGCTA,-0.171 z-score
ATGTCCTCCTCTCTCTTTCCGTGCTAG,1.01 z-score
GGCGGTTTCCTTTCCCTGACGTGCTAG,4.55 z-score
GACGGACTGGGGATCGGGACGTGCTAG,-0.48 z-score
ACCGTTGTAGTTTTCATTATGTGCTAG,0.465 z-score
GACGGTATCTTTATCCTGACGTGCTAG,-0.012 z-score
TTAGATATCGGGTTACGATTAGTGCTA,0.577 z-score
GACGGTCTCGGTTTCGTGACGTGCTAG,6.76 z-score

# Block 4
# Target: Histone acetyltransferase KAT6A, both winged helices, GST fusion (KAT6A, Homo sapiens, UniProt Q92794, residues 1-181)
# Method: protein binding microarray
# Form: double-stranded DNA, one strand shown
# Sample: in vitro
# Concentration: not given
# Setting: 8-mer, flanks averaged, mean of 2 arrays, mostly near background
# Relative to: not given
# Reading: higher = stronger binding
# Target sequence (chain): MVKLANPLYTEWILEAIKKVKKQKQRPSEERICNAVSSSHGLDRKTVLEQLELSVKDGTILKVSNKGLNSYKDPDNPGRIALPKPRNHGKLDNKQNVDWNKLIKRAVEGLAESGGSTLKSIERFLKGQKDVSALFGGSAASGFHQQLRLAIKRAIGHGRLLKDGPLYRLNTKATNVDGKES
Sequence,E-score
GATCCACA,-0.147
GAAAACCA,0.0141
GGAGTCGA,-0.0526
CGGACTTC,0.238
AGCTCTGG,-0.154
TATGTACA,-0.0617
GCTCGTTA,-0.165
CAAGGAAA,-0.139
CCCGCGCA,0.308
AGATCCTG,-0.128
CGCTAAAA,0.24
CGGCCCGC,0.294
ATGTGGCA,-0.0944
ACTTGCTC,-0.346
CGAACTGA,-0.00209
GGACCTAC,-0.0465
CCCCAGGA,-0.228
AGGAGCGA,-0.00466

# Block 5
# Target: ABI1, truncated, D143A, DHFR fusion (Arabidopsis thaliana)
# Method: DHFR PCA, deep sequencing
# Sample: yeast
# Setting: methotrexate growth selection, single substitutions
# Together with: (+)-ABA 200 µM
# Relative to: wild-type fitted maximum
# Reading: higher = stronger binding
# Starting sequence: PYL1, truncated, DHFR fusion (Arabidopsis thaliana); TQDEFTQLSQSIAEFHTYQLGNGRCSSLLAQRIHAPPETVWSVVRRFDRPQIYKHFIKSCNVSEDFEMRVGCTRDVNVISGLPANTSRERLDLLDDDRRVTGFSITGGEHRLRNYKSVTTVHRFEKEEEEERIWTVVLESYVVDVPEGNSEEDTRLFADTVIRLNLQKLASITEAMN; partner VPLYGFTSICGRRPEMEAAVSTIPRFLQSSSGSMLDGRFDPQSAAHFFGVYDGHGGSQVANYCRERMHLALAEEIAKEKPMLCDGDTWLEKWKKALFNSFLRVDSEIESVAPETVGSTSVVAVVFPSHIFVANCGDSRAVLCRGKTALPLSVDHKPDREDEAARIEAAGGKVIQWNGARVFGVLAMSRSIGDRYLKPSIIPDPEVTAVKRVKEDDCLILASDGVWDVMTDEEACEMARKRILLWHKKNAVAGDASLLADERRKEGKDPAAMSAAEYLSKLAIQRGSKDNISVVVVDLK
Substitution,relative binding score
L166G,-4.22%
G148I,43.4%
L138N,18.4%
V40Q,-31.7%
A84S,63.1%
A170C,94.8%
R74A,11.6%
E38C,84.6%
I12P,21.6%
G23I,68%
I12W,56.1%
N177T,101%
V70G,67.8%

# Block 6
# Target: CCND2, cyclin fold, Cln2 fusion (human)
# Method: yeast growth competition, sequencing
# Sample: yeast
# Setting: weak parent motif
# Relative to: not given
# Reading: higher = stronger binding
# Starting sequence: RB1 docking peptide (human); PKPLKKLRFDIEG
Substitution,normalised enrichment score
D10A,0.374
P3Q,0.17
L7Y,-0.0589
P1A,0.197
G13I,0.699
K5S,0.32
P1Q,0.318
G13P,-0.107
K2A,0.147
L4G,0.442
D10R,0.602
P3V,-0.152
P1H,0.412
K6C,0.313
F9M,0.522

# A few entries again (block 6):
Substitution,normalised enrichment score
P1A,0.197
G13I,0.699
K5S,0.32
P1Q,0.318
G13P,-0.107
K2A,0.147
L4G,0.442
D10R,0.602
P3V,-0.152
